Assay results of several laboratories.
Values joined by “and” are separate records of one study, mostly repeats; a detail may differ. Numbers after ± are the reported error.

Under “treatment-related adverse event incidence”, `COc1ccc(-c2c(-c3ccc(C#N)c(F)c3)nc(N3CCC(N)CC3)n(C)c2=O)cc1F` is recorded as 2% (refers to: Diarrhea; human patients; oral, dose not given, any grade, dose escalation, NG).
For `O=c1oc2c(O)c(O)cc3c(=O)oc4c(O)c(O)cc1c4c23`, the liver weight was 1.38 g (BALB/c mice; 1000 mg/kg/day, 28 days, subacute toxicity study).
The ALT of `CC(C)C[C@H](NC(=O)[C@H](CCCCN)NC(=O)OCC1c2ccccc2-c2ccccc21)C(=O)N[C@H](C(=O)N[C@@H](Cc1ccccc1)C(=O)N[C@@H](Cc1ccccc1)C(=O)N[C@@H](CCCCN)C(=O)NCC(=O)N[C@@H](Cc1ccccc1)C(=O)N[C@@H](C)C(=O)N[C@@H](Cc1c[nH]c2ccccc12)C(=O)N[C@@H](CC(N)=O)C(=O)N[C@H](C(=O)N[C@H]1CSSC[C@@H](C(=O)N[C@@H](Cc2c[nH]cn2)C(=O)N[C@@H](CCCNC(=N)N)C(=O)N[C@@H](CCCNC(=N)N)C(=O)N[C@@H](C)C(=O)N[C@@H](CC(N)=O)C(N)=O)NC(=O)[C@H](C(C)C)NC(=O)[C@H](CCCNC(=N)N)NC(=O)[C@H](C(C)C)NC(=O)CNC(=O)[C@H](CC(N)=O)NC(=O)[C@H](CCCNC(=N)N)NC(=O)[C@H](Cc2ccc(O)cc2)NC(=O)[C@H](C(C)C)NC1=O)C(C)C)C(C)C` is reported as 49.8 ± 3.35 IU/L (ICR mouse, blood; intramammary, 5 mg/kg, day 5, 3 d dosing).
For `CCS(=O)(=O)Nc1ccc(Oc2ccc(F)cc2F)c(-c2cn(C)c(=O)c3[nH]ccc23)c1`, “treatment-emergent adverse events” read 11% (serious Staphylococcal bacteremia; human, relapsed/refractory AML; oral, dose not given).
`O=S(=O)(Nc1ccccc1)c1ccc(NC(=S)Nc2ccccc2)cc1`: “mean corpuscular haemoglobin” 15 pg (mouse, male, blood; oral, 5 mg/kg daily, 14 days).
`O=C(c1ccc(F)c(F)c1Nc1ccc(I)cc1F)N1CC(O)([C@@H]2CCCCN2)C1`: “AE leading treatment withdrawal” 0% (patients aged 2 to 6 years; oral, dose not given).
With `Clc1ccc(-c2ccccc2)cc1` the phosphorus was 10 ± 4 mg/dL (Sprague-Dawley rats, female, serum; inhalation, 23 µg/rat, 2 h after exposure).
For `C=C(CN(C(=O)c1c(C(F)F)nn(C)c1F)C1CC1)c1ccc(Cl)cc1Cl`, the mortality was 30% (static acute toxicity test; zebrafish (Brachydanio rerio); 1.20 mg a.i./L, 6 h).
`CCc1ccc(CC/C=C/c2ccc3c(c2)C(=O)CC3)cc1` gave a Calcium of 2.45 mM (Sprague-Dawley rat, male; oral, 450 mg/kg/day, 14 days).
For `C[C@@H]1NC(=O)[C@H](CCCCNC(=O)CO/N=C/C(=O)NCCCC[C@@H]2NC(=O)[C@@H](Cc3ccccc3)NC(=O)[C@H](CC(=O)O)NC(=O)CNC(=O)[C@H](CCCNC(=N)N)NC2=O)NC(=O)CNC(=O)[C@@H]2CCCN2C(=O)[C@H](CCCCNC(=O)CO/N=C/C(=O)NCCCC[C@@H]2NC(=O)[C@@H](Cc3ccccc3)NC(=O)[C@H](CC(=O)O)NC(=O)CNC(=O)[C@H](CCCNC(=N)N)NC2=O)NC(=O)[C@H](CCCCNC(=O)[C@H](CCCCN)NC(=O)[C@H](Cc2ccccc2)NC(=O)CNC(=O)CN2CCCNCCNCCCNCC2)NC(=O)[C@H](CCCCNC(=O)CO/N=C/C(=O)NCCCC[C@@H]2NC(=O)[C@@H](Cc3ccccc3)NC(=O)[C@H](CC(=O)O)NC(=O)CNC(=O)[C@H](CCCNC(=N)N)NC2=O)NC(=O)CNC(=O)[C@@H]2CCCN2C(=O)[C@H](CCCCNC(=O)CO/N=C/C(=O)NCCCC[C@@H]2NC(=O)[C@@H](Cc3ccccc3)NC(=O)[C@H](CC(=O)O)NC(=O)CNC(=O)[C@H](CCCNC(=N)N)NC2=O)NC1=O` [copper-64 labelled], the tissue uptake was 3.16 ± 0.4 %ID/g (normal mice, lung; intravenous, 0.74 MBq, 24 h post-injection).
`CN1CCN(S(=O)(=O)c2cc([N+](=O)[O-])ccc2N(CCOS(C)(=O)=O)CCOS(C)(=O)=O)CC1` has a concentration of 340 nM (NSG mice female, plasma; intraperitoneal, 5 mg/kg, 0.5 h).
For `N[C@@H]1c2ccccc2OC12CCN(c1cnc3c(N4CCCc5ncccc54)n[nH]c3n1)CC2`, “TEAE leading to interruption” read 28.6% (advanced metastatic solid tumour patients; oral, 100 mg once daily).
`O=C(O)CCCOc1ccc(F)cc1-c1cc(-c2ccccc2C(F)(F)F)n(-c2ccccc2)n1` — result for “relative pituitary weight”: 7.4 ± 0.8 mg% (Crl:CD(SD) rat, female; intravenous, 25 µg/kg, 1 days post-dose; baseline: body weight).
The tissue uptake of `CC[C@H](C)[C@H](NC(=O)[C@H](Cc1ccccc1)NC(=O)[C@H](CCC(=O)O)NC(=O)[C@H](CCCNC(=N)N)NC(=O)[C@H](C)NC(=O)[C@H](C)NC(=O)[C@H](CCC(N)=O)NC(=O)[C@H](CCC(=O)O)NC(=O)[C@H](CCC(=O)O)NC(=O)[C@H](CC(C)C)NC(=O)[C@H](Cc1ccc(O)cc1)NC(=O)[C@H](CO)NC(=O)[C@H](CO)NC(=O)[C@@H](NC(=O)[C@H](CC(=O)O)NC(=O)[C@H](CO)NC(=O)[C@@H](NC(=O)[C@H](Cc1ccccc1)NC(=O)[C@@H](NC(=O)CNC(=O)[C@H](CCC(=O)O)NC(=O)[C@H](C)NC(=O)CCc1cnc[nH]1)[C@@H](C)O)[C@@H](C)O)C(C)C)C(=O)N[C@@H](C)C(=O)N[C@@H](Cc1c[nH]c2ccccc12)C(=O)N[C@@H](CC(C)C)C(=O)N[C@H](C(=O)N[C@@H](CCCNC(=N)N)C(=O)NCC(=O)N[C@@H](CCCNC(=N)N)C(=O)N[C@@H](CCCCNC(=O)COCCOCCNC(=O)COCCOCCNC(=O)CC[C@H](NC(=O)CCCCCCCCCCCCCCCCC(=O)O)C(=O)O)C(=O)NCC(=O)NCC(=O)N[C@@H](CO)C(=O)N[C@@H](CCCCNC(=O)[C@H](CCCCNC(=O)[C@H](CCCCNc1c(NCCCCCN(O)C(=O)CCC(=O)NCCCCCN(O)C(=O)CCC(=O)NCCCCCN(O)C(C)=O)c(=O)c1=O)Nc1c(NCCCCCN(O)C(=O)CCC(=O)NCCCCCN(O)C(=O)CCC(=O)NCCCCCN(O)C(C)=O)c(=O)c1=O)NC(=O)[C@H](CCCCNc1c(NCCCCCN(O)C(=O)CCC(=O)NCCCCCN(O)C(=O)CCC(=O)NCCCCCN(O)C(C)=O)c(=O)c1=O)Nc1c(NCCCCCN(O)C(=O)CCC(=O)NCCCCCN(O)C(=O)CCC(=O)NCCCCCN(O)C(C)=O)c(=O)c1=O)C(=O)O)C(C)C` [zirconium-89 labelled] is reported as 0.992 %ID/g and 1.21 %ID/g and 1.16 %ID/g and 1.53 %ID/g and 1.11 %ID/g (ex vivo gamma counting; Sprague-Dawley rat, male, spleen; intravenous, 1 nmol, 24 h).
`CCN1[C@@H](C(=O)NC23CCC(C(=O)O)(CC2)CC3)[C@H](c2cccc(Cl)c2F)[C@]2(C(=O)Nc3cc(Cl)ccc32)C12CCCCC2`: “grade ≥3 febrile neutropenia incidence” 0% (patients with advanced solid tumours; oral, 100 mg).
`C[C@]1(O)C[C@@](N)(c2ccc(-c3nc4n(c3-c3ccccc3)COc3ccncc3-4)cc2)C1`: “patients with grade ≥3 Rash TEAE” 22.2% (human, advanced or metastatic solid tumours; once daily, dose escalation total).
`O=C([O-])CN1CCN(CC(=O)[O-])CCN(CC(=O)NCC2CCC(C(=O)N[C@@H](Cc3ccc4ccccc4c3)C(=O)NCCCC[C@H](NC(=O)N[C@@H](CCC(=O)O)C(=O)O)C(=O)O)CC2)CCN(CC(=O)[O-])CC1.[177Lu+3]` (some centres unmarked) has a shelf life of at most 3 days (sodium acetate ascorbate buffer; radiochemical purity above 95%).
`COc1ncccc1-c1cnn2ccc(N3CCN(C(=O)OC(C)C)CC3)nc12` has a drug concentration of 3000 nM (mouse nerve ligation model, plasma; oral, 10 mg/kg, 30 min after last dose, repeat dosing day 5).
Under “adverse event incidence”, `[O-][S+]1CCc2nc(N3CCC(c4ncc(Cl)cn4)CC3)nc(NC3(CO)CCC3)c21` (centres unmarked) is recorded as 0% (refers to: Nausea; healthy male humans; single dose, all groups).
For `C[C@@H](NC(=O)N1C(=O)[C@H](Cc2ccnc(N)c2)[C@H]1C(=O)O)C1CCCCC1`, “incidence of urine leukocyte esterase positive” read 50% (healthy adult Chinese volunteers; continuous intravenous infusion, 0.6 mg/kg/h, 5-day infusion, CTCAE 5.0 grading).
`CO[C@H]1C[C@@H]2CC[C@@H](C)[C@@](O)(O2)C(=O)C(=O)N2CCCC[C@H]2C(=O)O[C@H]([C@H](C)C[C@@H]2CC[C@@H](OC(=O)NCCOCCOCCOCCOCCOCCOCCOCCOCCC(=O)N3CCc4cc(Cn5nc(-c6ccc7oc(N)nc7c6)c6c(N)ncnc65)ccc4C3)[C@H](OC)C2)C[C@@H](O)[C@H](C)/C=C(\C)[C@@H](O)[C@@H](OC)C(=O)[C@H](C)C[C@H](C)/C=C/C=C/C=C/1C` — result for “treatment-related decreased appetite incidence”: 30% (dose-escalation trial; patients with advanced solid tumours; intravenous, all doses weekly, any grade).
The DT50 of `COc1ccnc(C(=O)N[C@H]2COC(=O)[C@H](Cc3ccccc3)[C@@H](OC(=O)C(C)C)[C@H](C)OC2=O)c1OCOC(=O)C(C)C` is reported as 0.26 days (water, aerobic water/sediment; 20 °C, geometric mean).
`COc1cccc(Oc2ccccc2NC(=O)CNC(=O)c2cccc3ccccc23)c1` has a lymphocytes of 34% and 56.4% and 56% (esterase-deficient SCID mice, male, blood; oral, 15 mg/kg/day, 14 days, toxicity study; baseline: white cells).
`COc1ccc2nc3cc(Cl)ccc3c(Nc3cc(CN4CCCC4)c(O)c(CN4CCCC4)c3)c2n1` gave a blood pH of 7.59 (mouse, blood; intraperitoneal, 57 mg/kg).
`CN1C(=O)[C@@H](NC(=O)c2nnc(Cc3ccccc3)[nH]2)COc2cccnc21` — result for “participants with TEAE leading to death”: 0% (phase I single ascending dose; human, male and female; oral, 400 mg, fasted).
`COc1cc2c(Oc3ccc4[nH]c(C)cc4c3F)ccnc2cc1OCC1(N)CC1`: “ALT elevation incidence” 25% (paediatric refractory sarcoma patients; 8 mg).
For `O[C@H]1CCCN[C@@H]1CCCn1cnc2c(Cl)c(Cl)ccc21`, the AUCtau was 1690 ng·h/mL (healthy CYP2D6 intermediate metabolizers, plasma; oral, 150 mg multiple doses).
With `CC(=O)c1c(C)c2cnc(Nc3ccc(C4CCN(CCS(C)(=O)=O)CC4)cn3)nc2n(C2CCCC2)c1=O` the AUC(0-t) was 2470 ng·h/mL (human, dose-escalation trial, plasma; oral, 100 mg twice daily, day 1, single dose).
`C[C@H]1C[C@@H](N2C(=N)N[C@](C)(c3cccc(NC(=O)c4cccc(C#N)c4)c3Cl)CC2=O)CCO1` gave an ALAT change of 38% (rat; 500 mg/kg, every other day).
Under “subjects with injection-site swelling”, `NCCCC[C@@H]1NC(=O)[C@@H](Cc2c[nH]c3ccccc23)NC(=O)[C@H](c2ccccc2)NC(=O)[C@@H]2C[C@@H](OC(=O)NCCN)CN2C(=O)[C@H](Cc2ccccc2)NC(=O)[C@H](Cc2ccc(OCc3ccccc3)cc2)NC1=O` is recorded as 3% (healthy human volunteers; 600 µg twice daily).
With `C[C@]1(CO)Cc2ncn(-c3ccc(C#N)c(Cl)c3)c2C(=O)O1` the AUC(0-inf) was 2.4 µM·h (human; oral, 10 mg, fed, single dose, geometric mean).
For `CCN1CCN(Cc2ccc(Nc3ncc(F)c(-c4cc(F)c5nc6n(c5c4)[C@H](C)CCC6)n3)nc2)CC1`, “blood bilirubin increased incidence” read 0% (Phase Ia dose escalation; patients with advanced solid tumours; dose not given, monotherapy, grade ≥3).
For `O=c1ccc2ncc(=O)n3c2n1C[C@H]3CN1CCC(NCc2cc3c(cn2)OCCC3)CC1`, “decrease in Cmax” read 27% (healthy human volunteers, plasma; oral, dose not given, together with: rifampicin; baseline: compound alone).
For `O=C1Nc2cc3[nH]nc(-c4ccncc4)c3cc2CN1Cc1ccccc1`, “patients with blurred vision” read 0% (CTCAE v4.03; advanced solid tumour patients; intravenous, 3.6 mg/kg).
Under “patients with adverse event”, `CN1CC[C@@H](c2c(O)cc(O)c3c(=O)cc(-c4ccc(C(F)(F)F)cc4Cl)oc23)[C@@H]1CO` is recorded as 0% (refers to: Hypertension; AML; oral, 150 mg, intermittent dosing).

Excerpt of the above:
`O=S(=O)(Nc1ccccc1)c1ccc(NC(=S)Nc2ccccc2)cc1`: “mean corpuscular haemoglobin” 15 pg (mouse, male, blood; oral, 5 mg/kg daily, 14 days).
For `CCS(=O)(=O)Nc1ccc(Oc2ccc(F)cc2F)c(-c2cn(C)c(=O)c3[nH]ccc23)c1`, “treatment-emergent adverse events” read 11% (serious Staphylococcal bacteremia; human, relapsed/refractory AML; oral, dose not given).
